Results from different studies.
Each numbered part is a random draw from the data of one study; scales do not carry over between parts.

Sample 1 — technique: RNA Bind-n-Seq; form: RNA; matrix: in vitro; tested at: 365 nM; reference: no-protein control; reading: higher = stronger binding
Target: RNA binding protein fox-1 homolog 2, RRM domain, GST-SBP tag (RBFOX2, Homo sapiens, UniProt O43251-10, residues 100-194)
Setting: natural RNA segment, single round, ends assumed
Target sequence (chain): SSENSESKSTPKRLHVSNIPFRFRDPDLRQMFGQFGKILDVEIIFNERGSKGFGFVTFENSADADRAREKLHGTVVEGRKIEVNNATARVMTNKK
Strand	RBNS enrichment (R)
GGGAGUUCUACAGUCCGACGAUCCAUAGAUGAGGGGUAUGCAUUUCUUAAAAAUCCAUGAACCCUCAAUUGUAUGCUUUCAGUAUUGUGUUAUAUGUUUCUAUGGCAACUUUGAAGUCAGUGGUUUAGAAAUGUGGAAUUCUCGGGUGCCAA	0.536
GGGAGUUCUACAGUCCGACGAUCGUCCAAGUGUGCUCUCCUUUCAUACAGUUUCCAUGGUGUGAGUGCUUUACUGAAGAUCUGUUUCUUUUGUACUCUGACUACACAUGACCCAAUUAUAUUCUAAUGUGAAAUGGAAUUCUCGGGUGCCAA	0.342
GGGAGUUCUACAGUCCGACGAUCCCUAUGGAAUUGUUUUUAAUCAUCAAAUUUAACCAUUUUCAUAACUGGUUCCUGGAGGUGUGCAGUGCCCCCUUGCCUCUUCAAACCUACAGCUUCUCUUUGCCAUUUGUUGGAAUUCUCGGGUGCCAA	0.59
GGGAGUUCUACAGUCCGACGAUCCGUUUGGACAGCAGUGUUCUGUGGGCCCUCCCCUCCCCCAUAUCCUGCACCCCCUCAUAGCAGUAGUGGCUUCGCCAUUCUGUUUUCUGCAGUGUCCUGUACAAAACUGUUGGAAUUCUCGGGUGCCAA	0.42
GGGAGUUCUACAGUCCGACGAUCUUGUAUGUUGUAUAUACCAUUCUAUUAAGAAACAUGUCCACUGUGCUUUCAAACAUAGAUAAAGCAUGAUAAAGAUUAUUAUUUAAGAUAUACUUGUAUUUAUACCUCAGUGGAAUUCUCGGGUGCCAA	1.44
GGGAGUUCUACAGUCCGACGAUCCAAAAUGGCAUCUUUCCUCCCAAACUGGGAGCCAAAUUCUGCAGAAAUCAUGGACAGUAAAUGGUGACAGAUGUCUGAAGGGGUCUCAAAGAUGCAAGGGAACAUGGGGUUGGAAUUCUCGGGUGCCAA	0.571
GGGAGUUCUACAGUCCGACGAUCUUAGUUGUAACCAGUAGUAUUCACAUUAAAUCUUGCUUUUUUUCCCCUUAAAAAAAGAAAAAAAUUACCAAACAAUAAACUUGGCUAGACCUUGUUUUGAGGAUUUUACAUGGAAUUCUCGGGUGCCAA	0.603
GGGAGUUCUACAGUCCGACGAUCUUUCAUUUGACUUACAACACACUUCUCUAACAUCUAGCCCUUUUAAAUUUUUAAUUAAUUUCAAAGCUUCCUCUGGCCAGGUAGACUUUUGUAUACAGACCAGGUGAGAGUGGAAUUCUCGGGUGCCAA	0.289
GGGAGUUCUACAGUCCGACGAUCUCACACAUCUUGAGCGAGAAGGCAUCUUCCUGGAAGACACAGCCUGCUUCUACCUGGCAGAGAUCACACUAGCCCUGGGCCAUCUCCAUUCCCACGGCAUCAUCUACCGGUGGAAUUCUCGGGUGCCAA	0.259
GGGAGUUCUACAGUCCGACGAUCCCCACACCCGGGGGGCCUCUGUUCAUAGCGGCACAUGCAUUUCCCCACCGCGUCUUGUCUGCAGCUUCUUGGCCAAUGUAGUAAUGCUUUUAGUAGAGUAAUAGGUAGUAUGGAAUUCUCGGGUGCCAA	1.14
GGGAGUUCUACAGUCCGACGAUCUUUUUACAACCAUCCGGUGUGGUUUGGAGGAUUUGUUUUUUUUUUUUCCCAACAGAAAAGAACAGCCAUUAGAAGAAGGCUCCCAUUUUCUGAUGUUCCGCCCCACUGUGUGGAAUUCUCGGGUGCCAA	0.313
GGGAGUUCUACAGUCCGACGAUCUAAGGUUCCUGUGGACUUUGUGUACCAAGGUGUCCAGUGCCACCAACACUGACCUGGGGCCUUUACAAAUGGUUGCUCUCCUCCAUCUUCCCAGGGCUGCGGUCCUGGUGUGGAAUUCUCGGGUGCCAA	0.19

Sample 2 — technique: protein-binding microarray; form: double-stranded DNA, one strand shown; matrix: in vitro; tested at: 0.8 µM; setting: whole 60-bp probe, no competitor; reading: higher = stronger binding
Target: Centromere-binding protein 1, full length, N-terminal tag (CBF1, Saccharomyces cerevisiae, UniProt P17106, residues 1-351)
Sequence of UniProt P17106 (whole entry, looked up): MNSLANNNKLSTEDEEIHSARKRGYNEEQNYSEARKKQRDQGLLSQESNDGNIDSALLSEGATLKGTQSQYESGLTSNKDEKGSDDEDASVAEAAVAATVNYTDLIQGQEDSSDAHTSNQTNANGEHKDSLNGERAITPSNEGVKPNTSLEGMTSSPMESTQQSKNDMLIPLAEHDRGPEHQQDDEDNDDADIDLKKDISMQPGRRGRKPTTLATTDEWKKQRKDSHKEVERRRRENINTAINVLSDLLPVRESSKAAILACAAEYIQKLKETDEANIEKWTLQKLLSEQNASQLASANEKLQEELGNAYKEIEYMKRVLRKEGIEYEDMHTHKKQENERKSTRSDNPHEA
Strand	fluorescence intensity
GAAGATGGCCTATGTCATGTGTCTAAAAAGTTTTAGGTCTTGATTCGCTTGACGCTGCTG	1260 a.u.
CCTAACTACTATAACGTGGGCCCATAGCTTCGTACAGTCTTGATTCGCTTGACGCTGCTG	509 a.u.
CTAAGTCTCTGGAAAAACGTGCTATTTAACGGTTTCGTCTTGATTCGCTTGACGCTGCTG	742 a.u.
GAAAGTTCTCTGTGGCACGTCGTGAAAGAATGCTAGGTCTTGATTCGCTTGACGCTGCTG	532 a.u.
CTAATTTCATAATCTGGTGAGAACGTTATCACGTTCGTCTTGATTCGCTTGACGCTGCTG	560 a.u.
CTATTTGATGGTATACGCCTGATGTTTTTTTCGTTCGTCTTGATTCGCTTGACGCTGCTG	573 a.u.
GAATTTTATTTTTGTCACGTAGTGCACTTTGATTAGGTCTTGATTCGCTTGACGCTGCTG	894 a.u.
CCTAACTACTATAGTCAGCGGAGATAGCTTCGTACAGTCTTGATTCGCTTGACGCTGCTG	490 a.u.
TGTACGAAGCTATAAGGTGTGACTATAGTAGTTAGGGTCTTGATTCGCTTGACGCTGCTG	618 a.u.
TGTACGAAGCTATGCCACGAATATATAGTAGTTAGGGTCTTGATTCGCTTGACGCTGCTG	537 a.u.
CTATGTGAAAACGGTGATGATAGTAAAAAAATATTCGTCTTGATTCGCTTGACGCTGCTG	569 a.u.
CTATTCAACATTGCGGGCGTGATTATAGGTCAGTTCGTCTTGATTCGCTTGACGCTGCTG	610 a.u.
GAAAATAAAAAAAGCCACGTTAGATATAGTATTTAGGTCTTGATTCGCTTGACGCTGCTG	534 a.u.
GAAAGCCACTACTATCACGTGCCATTACCATTTTAGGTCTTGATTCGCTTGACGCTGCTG	9730 a.u.
GAATGAGCGAACTCAGCTGTCACCGTTTCGGGATAGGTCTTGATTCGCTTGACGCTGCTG	493 a.u.
CTAAAAAGGGATGAATACGTGGGAAACGGTTGCTTCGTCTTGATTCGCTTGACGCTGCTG	505 a.u.
CTACGTCTGCTCTTCCACGTTCAGATGTTCCCTTTCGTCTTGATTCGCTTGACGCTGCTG	521 a.u.
CCTAACTACTATATGCATGTTATATAGCTTCGTACAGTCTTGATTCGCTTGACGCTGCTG	514 a.u.
GAATATTTCCCGTGTAACGTGATATATTTGTGATAGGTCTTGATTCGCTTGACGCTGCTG	2390 a.u.
CTAGGAAAAAAACGTGACGCCTTTTAGCACAAATTCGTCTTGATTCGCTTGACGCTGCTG	4170 a.u.
GAAGAATACTGACATCAGCTGATTTCTCATAGATAGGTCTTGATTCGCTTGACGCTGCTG	2110 a.u.
GAAAAACAAAATATTCACATGTTTTTCTCACCTTAGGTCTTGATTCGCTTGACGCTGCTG	644 a.u.
CTACAGAGAGGCAATTGCGTGATTAATTCGGAATTCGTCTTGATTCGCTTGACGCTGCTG	574 a.u.
CTATTTGTAGTATTCTTCGTGATCTTTTTCTCTTTCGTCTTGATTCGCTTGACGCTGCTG	603 a.u.
CCTAACTACTATAGACACGTTCCATAGCTTCGTACAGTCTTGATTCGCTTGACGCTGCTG	558 a.u.

Sample 3 — technique: protein binding microarray; form: double-stranded DNA, one strand shown; matrix: in vitro; tested at: not given; reference: not given; reading: higher = stronger binding
Target: Histone acetyltransferase KAT6A, both winged helices, GST fusion (KAT6A, Homo sapiens, UniProt Q92794, residues 1-181)
Setting: 8-mer, flanks averaged, mean of 2 arrays, mostly near background
Target sequence (chain): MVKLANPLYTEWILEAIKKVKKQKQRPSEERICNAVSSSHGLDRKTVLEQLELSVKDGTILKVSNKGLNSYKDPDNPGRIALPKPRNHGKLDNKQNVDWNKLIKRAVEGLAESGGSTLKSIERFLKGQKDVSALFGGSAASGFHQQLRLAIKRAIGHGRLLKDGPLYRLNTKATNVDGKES
Strand	E-score
CCGTAAGG	0.144
CACCACGG	0.0706
CAAGGGCC	-0.121
CCACGCTA	-0.0468
GCTCGGAC	0.118
AGGATCCC	-0.0844
AAAGCGGG	0.209
AAGCCGAA	-0.0127
GATACAAA	0.0306
CAGGTTCG	-0.101
ATTGACAC	0.0699
GCAGCGGC	0.29
GACCAGGC	-0.138
GTATTGAC	0.0862
CATAATCG	0.0348
ATGTATCC	0.0193
TACACCGA	0.0538
GAGAGTAC	-0.0345
CAAAAGTG	-0.0436
CACCTCAA	-0.166
ACGTCTCA	-0.0994
AGTTGGCC	-0.17
GTCGCTGA	0.0379
ACTGGGAA	-0.126
ACTCATTG	-0.166

Sample 4 — technique: universal PBM; form: double-stranded DNA, one strand shown; matrix: in vitro; tested at: not given; reading: higher = stronger binding
Target: Sal-like protein 4, full length isoform B (SALL4, Homo sapiens, UniProt Q9UJQ4-2, residues 1-616)
Setting: 8-mer, flanks averaged, mean of replicates
Residues (chain): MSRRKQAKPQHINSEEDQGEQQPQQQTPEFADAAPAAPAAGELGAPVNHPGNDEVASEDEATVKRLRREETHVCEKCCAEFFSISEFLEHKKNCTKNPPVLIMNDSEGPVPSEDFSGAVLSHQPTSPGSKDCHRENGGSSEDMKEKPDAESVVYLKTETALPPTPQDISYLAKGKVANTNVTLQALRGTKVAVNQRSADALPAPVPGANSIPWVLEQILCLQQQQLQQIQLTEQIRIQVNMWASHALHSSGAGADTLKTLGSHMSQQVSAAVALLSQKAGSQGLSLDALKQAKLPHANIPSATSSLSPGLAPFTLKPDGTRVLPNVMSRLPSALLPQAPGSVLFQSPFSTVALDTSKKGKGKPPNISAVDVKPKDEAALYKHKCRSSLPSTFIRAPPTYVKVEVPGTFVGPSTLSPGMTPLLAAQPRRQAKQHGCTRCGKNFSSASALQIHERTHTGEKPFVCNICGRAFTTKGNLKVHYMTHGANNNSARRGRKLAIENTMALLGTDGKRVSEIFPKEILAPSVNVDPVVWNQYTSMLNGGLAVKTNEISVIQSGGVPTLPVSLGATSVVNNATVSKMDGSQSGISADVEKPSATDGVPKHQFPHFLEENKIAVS
Strand	E-score
CGCAAGGC	-0.169
CCTACCAC	-0.294
CGCAAGTA	0.119
CCCAGGAG	-0.349
TAGTTCGA	0.0931
CCAGACAA	-0.042
GTACCCGA	-0.17
GCAGGCTA	-0.251
CAGGCTAA	-0.193
CGAGGGGC	-0.344
CTCCTTAA	0.0138
AACTGTGT	-0.0214
CGTCATAC	0.158
GCGTACAC	0.0207
CGACCTCA	-0.138
AGGCCATA	-0.0505
CTTACAAA	0.0657
ATAAATGC	0.298
AAACGTCA	0.102
CTCAACAG	0.0587
CTGTGAGA	-0.0685
TCGGATCA	0.0273
TGTGCTAA	0.0221
GCTCGCCA	-0.26
AGCGGGCC	-0.339

For quick reference, copied from above (sample 2):
Strand	fluorescence intensity
CTACAGAGAGGCAATTGCGTGATTAATTCGGAATTCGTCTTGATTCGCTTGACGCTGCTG	574 a.u.
CCTAACTACTATAACGTGGGCCCATAGCTTCGTACAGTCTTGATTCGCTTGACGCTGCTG	509 a.u.
CCTAACTACTATAGTCAGCGGAGATAGCTTCGTACAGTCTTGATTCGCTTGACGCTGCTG	490 a.u.
CTAATTTCATAATCTGGTGAGAACGTTATCACGTTCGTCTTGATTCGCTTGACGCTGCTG	560 a.u.
CTATTCAACATTGCGGGCGTGATTATAGGTCAGTTCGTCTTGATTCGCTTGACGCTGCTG	610 a.u.
